Assay results of several laboratories.

Structure (SMILES)	test	system	conditions	measurement	result
Nc1nc2cc(-c3ccc4ncc(C(=O)N5CCOCC5)n4c3)ccc2o1	item: Cough, any cause, grade ≥3	patients with advanced solid tumours	dose not given	patients with adverse events	0%
CC(=O)c1c(C)c2cnc(Nc3ccc(C4CCN(CCS(C)(=O)=O)CC4)cn3)nc2n(C2CCCC2)c1=O		HR+/HER2- advanced breast cancer patients	oral, dose not given, all grades,, sample A patients	patients with anaemia	44.4%
CCN(CCO)CCCC(C)Nc1ccnc2cc(Cl)ccc12 (stereo not shown)	item: Anxiety grade 1	newly diagnosed glioblastoma patients	oral, 200 mg/dose, with radiotherapy and temozolomide	patients with adverse event	33%
C=CCNc1c(O)cc2c(O)c1C[C@@H](C)C[C@H](OC)[C@H](O)[C@@H](C)/C=C(\C)[C@H](OC(N)=O)[C@@H](OC)/C=C\C=C(/C)C(=O)N2		unresectable or metastatic STS, GIST, other	intravenous, 400 mg/m^2	patients with constipation TEAE	22%
COc1c(OCCCN2CCOCC2)ccc2c1N=C(NC(=O)c1cnc(N)nc1)N1CCN=C21	item: Constipation	patients with advanced malignancies	intravenous, dose not given, any grade, all cohorts, together with: gemcitabine	patients with adverse event	30%
O=C1Nc2cc3[nH]nc(-c4ccncc4)c3cc2CN1Cc1ccccc1	CTCAE v4.03	advanced solid tumour patients	intravenous, 3.6 mg/kg, schedules 1/2	patients with abdominal pain	33%
CO[C@H]1C[C@@H]2CC[C@@H](C)[C@@](O)(O2)C(=O)C(=O)N2CCCC[C@H]2C(=O)O[C@H]([C@H](C)C[C@@H]2CC[C@@H](OC(=O)NCCOCCOCCOCCOCCOCCOCCOCCOCCC(=O)N3CCc4cc(Cn5nc(-c6ccc7oc(N)nc7c6)c6c(N)ncnc65)ccc4C3)[C@H](OC)C2)C[C@@H](O)[C@H](C)/C=C(\C)[C@@H](O)[C@@H](OC)C(=O)[C@H](C)C[C@H](C)/C=C/C=C/C=C/1C	item: treatment-related mucositis	patients with advanced solid tumours	intravenous, 8 to 12 mg, DM plus TM, weekly	patients with AE	31%
C[C@@H]1OC(=O)NN=C1c1ccc(-c2ccc(F)cc2)c(C(F)(F)F)c1		patients, phase I trial	oral, 5 mg once daily, worst grade 1	patients with abdominal distension	0%
CN1CC[C@@H](c2c(O)cc(O)c3c(=O)cc(-c4ccc(C(F)(F)F)cc4Cl)oc23)[C@@H]1CO	item: Dizziness	AML	oral, 150 mg, intermittent dosing	patients with adverse event	25%
N[C@@H]1c2ccccc2OC12CCN(c1cnc3c(N4CCCc5ncccc54)n[nH]c3n1)CC2	phase Ia	patients advanced metastatic solid tumours	oral, dose not given	patients with dose interruptions	66%

Some of these lines once more:
Structure (SMILES)	test	system	conditions	measurement	result
CCN(CCO)CCCC(C)Nc1ccnc2cc(Cl)ccc12 (stereo not shown)	item: Anxiety grade 1	newly diagnosed glioblastoma patients	oral, 200 mg/dose, with radiotherapy and temozolomide	patients with adverse event	33%
